Measurements collected from several papers.
Each line is one published result; not all experiments were run side by side. ± gives the spread as reported.
PARP1: Poly [ADP-ribose] polymerase 1 (PARP1, Homo sapiens, UniProt P09874)
Chain of UniProt P09874 (whole entry, looked up): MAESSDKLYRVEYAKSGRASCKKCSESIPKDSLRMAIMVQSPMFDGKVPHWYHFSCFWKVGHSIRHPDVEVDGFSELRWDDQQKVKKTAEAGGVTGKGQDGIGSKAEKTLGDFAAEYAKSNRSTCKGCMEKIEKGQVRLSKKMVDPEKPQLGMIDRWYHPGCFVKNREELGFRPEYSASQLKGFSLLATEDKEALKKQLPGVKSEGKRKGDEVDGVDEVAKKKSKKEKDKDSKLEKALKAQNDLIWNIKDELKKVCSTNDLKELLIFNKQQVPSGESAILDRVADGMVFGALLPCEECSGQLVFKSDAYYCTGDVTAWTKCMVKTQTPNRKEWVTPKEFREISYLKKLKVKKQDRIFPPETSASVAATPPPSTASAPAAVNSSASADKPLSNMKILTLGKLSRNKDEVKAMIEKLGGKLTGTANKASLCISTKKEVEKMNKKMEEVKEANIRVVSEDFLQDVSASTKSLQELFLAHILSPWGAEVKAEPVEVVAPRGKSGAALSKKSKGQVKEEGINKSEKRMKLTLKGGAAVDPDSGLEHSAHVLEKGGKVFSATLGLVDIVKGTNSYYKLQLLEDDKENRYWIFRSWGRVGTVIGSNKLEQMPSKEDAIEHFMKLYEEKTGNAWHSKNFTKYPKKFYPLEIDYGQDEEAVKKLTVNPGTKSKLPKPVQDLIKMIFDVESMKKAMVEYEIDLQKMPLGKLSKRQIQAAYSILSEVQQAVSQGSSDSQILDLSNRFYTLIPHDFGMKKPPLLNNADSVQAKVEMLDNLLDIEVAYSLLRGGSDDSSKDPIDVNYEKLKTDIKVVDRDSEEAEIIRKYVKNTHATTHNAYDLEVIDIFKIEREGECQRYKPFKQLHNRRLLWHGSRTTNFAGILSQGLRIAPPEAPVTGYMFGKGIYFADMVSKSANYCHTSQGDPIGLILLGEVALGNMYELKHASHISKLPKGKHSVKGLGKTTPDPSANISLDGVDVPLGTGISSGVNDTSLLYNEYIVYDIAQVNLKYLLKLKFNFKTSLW
FAAH: Fatty-acid amide hydrolase 1 (FAAH, Homo sapiens, UniProt O00519)
Chain of UniProt O00519 (whole entry, looked up): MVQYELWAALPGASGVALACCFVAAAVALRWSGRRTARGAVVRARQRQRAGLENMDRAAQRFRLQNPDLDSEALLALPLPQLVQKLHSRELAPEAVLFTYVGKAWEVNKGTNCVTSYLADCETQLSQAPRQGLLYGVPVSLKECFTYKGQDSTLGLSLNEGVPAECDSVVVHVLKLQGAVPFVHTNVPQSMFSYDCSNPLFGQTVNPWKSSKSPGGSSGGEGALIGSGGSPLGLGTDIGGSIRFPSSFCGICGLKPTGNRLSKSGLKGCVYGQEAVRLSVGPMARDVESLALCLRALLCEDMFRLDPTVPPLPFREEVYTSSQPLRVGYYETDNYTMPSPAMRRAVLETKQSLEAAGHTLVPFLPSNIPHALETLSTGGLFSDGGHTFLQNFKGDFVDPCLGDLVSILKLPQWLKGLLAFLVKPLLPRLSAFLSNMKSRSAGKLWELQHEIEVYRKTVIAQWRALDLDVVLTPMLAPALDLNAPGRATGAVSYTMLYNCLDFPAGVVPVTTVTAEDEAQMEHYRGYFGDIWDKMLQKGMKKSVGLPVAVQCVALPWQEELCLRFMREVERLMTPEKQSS
CXCR4: C-X-C chemokine receptor type 4 (CXCR4, Homo sapiens, UniProt P61073)
Chain of UniProt P61073 (whole entry, looked up): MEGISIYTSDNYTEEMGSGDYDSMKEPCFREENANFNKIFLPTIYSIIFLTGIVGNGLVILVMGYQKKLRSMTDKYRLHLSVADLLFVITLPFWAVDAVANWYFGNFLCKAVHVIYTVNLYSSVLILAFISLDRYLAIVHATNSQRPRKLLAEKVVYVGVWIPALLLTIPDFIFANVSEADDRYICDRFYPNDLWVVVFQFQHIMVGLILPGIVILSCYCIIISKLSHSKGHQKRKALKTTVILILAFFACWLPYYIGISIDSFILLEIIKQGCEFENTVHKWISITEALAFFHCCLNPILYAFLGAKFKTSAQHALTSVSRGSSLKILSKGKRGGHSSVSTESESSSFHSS
PSMB5: Proteasome Macropain subunit MB1 (PSMB5, Homo sapiens, UniProt P28074)
Chain of UniProt P28074 (whole entry, looked up): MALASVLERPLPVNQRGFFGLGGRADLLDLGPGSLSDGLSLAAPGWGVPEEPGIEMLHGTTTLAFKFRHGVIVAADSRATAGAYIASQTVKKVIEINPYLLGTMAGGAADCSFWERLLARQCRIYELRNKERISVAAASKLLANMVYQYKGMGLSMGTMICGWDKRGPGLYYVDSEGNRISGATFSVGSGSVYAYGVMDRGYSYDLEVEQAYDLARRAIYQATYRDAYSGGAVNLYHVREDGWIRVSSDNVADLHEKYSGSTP
ABCC1: Multidrug resistance-associated protein 1 (ABCC1, Homo sapiens, UniProt P33527)
Chain of UniProt P33527 (whole entry, looked up): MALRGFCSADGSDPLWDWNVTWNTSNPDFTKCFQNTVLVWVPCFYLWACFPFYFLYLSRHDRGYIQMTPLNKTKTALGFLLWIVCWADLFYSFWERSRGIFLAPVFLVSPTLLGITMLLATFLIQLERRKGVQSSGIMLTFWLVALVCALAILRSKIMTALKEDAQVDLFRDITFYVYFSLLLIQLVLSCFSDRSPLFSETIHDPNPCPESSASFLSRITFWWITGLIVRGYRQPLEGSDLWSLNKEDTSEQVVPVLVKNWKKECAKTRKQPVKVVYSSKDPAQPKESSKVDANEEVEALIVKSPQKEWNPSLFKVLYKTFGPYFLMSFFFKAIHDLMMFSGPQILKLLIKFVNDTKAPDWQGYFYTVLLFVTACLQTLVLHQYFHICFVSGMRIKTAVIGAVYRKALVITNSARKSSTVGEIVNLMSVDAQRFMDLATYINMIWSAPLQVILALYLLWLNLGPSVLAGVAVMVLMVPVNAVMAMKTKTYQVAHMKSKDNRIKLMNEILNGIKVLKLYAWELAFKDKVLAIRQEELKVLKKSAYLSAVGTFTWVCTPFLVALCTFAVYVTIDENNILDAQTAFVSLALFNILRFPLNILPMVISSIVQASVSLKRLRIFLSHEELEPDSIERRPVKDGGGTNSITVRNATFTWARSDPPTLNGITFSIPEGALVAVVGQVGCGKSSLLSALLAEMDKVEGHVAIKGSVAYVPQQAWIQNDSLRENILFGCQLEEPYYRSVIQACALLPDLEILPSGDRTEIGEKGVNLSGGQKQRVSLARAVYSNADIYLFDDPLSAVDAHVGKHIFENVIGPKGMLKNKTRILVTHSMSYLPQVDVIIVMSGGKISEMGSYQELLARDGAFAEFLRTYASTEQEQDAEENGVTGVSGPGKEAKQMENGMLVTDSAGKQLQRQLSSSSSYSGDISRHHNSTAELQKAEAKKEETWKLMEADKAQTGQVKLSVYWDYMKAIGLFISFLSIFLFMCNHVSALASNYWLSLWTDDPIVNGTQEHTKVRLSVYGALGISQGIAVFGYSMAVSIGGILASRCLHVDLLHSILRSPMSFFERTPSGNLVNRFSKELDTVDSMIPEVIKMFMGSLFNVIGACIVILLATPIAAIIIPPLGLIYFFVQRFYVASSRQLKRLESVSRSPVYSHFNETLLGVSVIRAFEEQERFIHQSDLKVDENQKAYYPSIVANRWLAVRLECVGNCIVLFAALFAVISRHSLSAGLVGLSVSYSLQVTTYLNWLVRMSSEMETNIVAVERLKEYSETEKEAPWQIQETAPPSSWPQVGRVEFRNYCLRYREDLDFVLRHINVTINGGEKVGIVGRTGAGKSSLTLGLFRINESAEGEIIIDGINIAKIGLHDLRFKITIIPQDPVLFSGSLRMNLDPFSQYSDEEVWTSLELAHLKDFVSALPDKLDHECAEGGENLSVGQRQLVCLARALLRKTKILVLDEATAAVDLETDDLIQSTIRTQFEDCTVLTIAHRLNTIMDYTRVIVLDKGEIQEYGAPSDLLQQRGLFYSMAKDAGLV
Chain of UniProt Q15761 (whole entry, looked up): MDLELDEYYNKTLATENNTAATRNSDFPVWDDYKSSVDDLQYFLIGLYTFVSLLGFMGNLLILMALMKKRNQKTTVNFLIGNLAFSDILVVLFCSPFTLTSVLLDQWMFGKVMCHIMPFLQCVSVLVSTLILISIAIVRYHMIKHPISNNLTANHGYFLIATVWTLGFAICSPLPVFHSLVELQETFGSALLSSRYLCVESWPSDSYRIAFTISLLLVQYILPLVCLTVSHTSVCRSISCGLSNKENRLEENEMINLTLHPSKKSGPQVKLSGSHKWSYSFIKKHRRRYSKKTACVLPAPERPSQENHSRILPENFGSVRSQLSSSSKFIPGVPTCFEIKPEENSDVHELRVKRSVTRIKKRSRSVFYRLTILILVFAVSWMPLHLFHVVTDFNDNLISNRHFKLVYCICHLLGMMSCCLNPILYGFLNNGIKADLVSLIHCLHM
Chain of UniProt Q86YT5 (whole entry, looked up): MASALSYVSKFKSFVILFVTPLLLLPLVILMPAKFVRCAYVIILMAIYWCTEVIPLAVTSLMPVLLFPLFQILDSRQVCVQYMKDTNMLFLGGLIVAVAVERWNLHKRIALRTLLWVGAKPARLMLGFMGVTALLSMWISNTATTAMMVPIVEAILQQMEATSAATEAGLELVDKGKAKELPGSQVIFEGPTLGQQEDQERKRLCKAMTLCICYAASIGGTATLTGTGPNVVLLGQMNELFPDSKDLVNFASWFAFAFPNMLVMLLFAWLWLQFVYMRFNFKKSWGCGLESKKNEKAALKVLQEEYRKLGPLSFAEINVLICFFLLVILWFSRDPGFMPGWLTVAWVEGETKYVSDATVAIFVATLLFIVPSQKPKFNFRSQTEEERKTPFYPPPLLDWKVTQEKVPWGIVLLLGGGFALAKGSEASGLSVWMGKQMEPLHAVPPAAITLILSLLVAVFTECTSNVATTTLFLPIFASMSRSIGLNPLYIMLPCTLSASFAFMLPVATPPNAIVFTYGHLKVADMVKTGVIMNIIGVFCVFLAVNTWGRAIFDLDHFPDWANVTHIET
Chain of UniProt Q96D96 (whole entry, unmodified, looked up): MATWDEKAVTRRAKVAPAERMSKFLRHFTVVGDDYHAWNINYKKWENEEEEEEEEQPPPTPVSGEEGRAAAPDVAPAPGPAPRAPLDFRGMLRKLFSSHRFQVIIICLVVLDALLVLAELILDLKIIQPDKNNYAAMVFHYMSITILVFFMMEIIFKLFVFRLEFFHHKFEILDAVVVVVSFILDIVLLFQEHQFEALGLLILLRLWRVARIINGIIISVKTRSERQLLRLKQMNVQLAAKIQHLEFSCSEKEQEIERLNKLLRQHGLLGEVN

Molecule	target	assay	system	setting	IC50 [µM]
O=c1cc(N2CCOCC2)oc2c(OCc3cccnc3)cccc12	PIK3CB (Homo sapiens, UniProt P42338, E858H)	enzyme activity, inhibitor			1.16
CN1CCC2(CC1)c1ccccc1N(Cc1ccc(C(=O)NO)s1)C2c1cccc(Cl)c1 (centres unmarked)	Histone deacetylase 8 (Schistosoma mansoni, UniProt A5H660)	enzyme activity, inhibitor, Fluor-de-Lys		varied substrate concentration, together with: Fluor-de-Lys substrate 150 µM	0.055 ± 0.007
CC(Sc1nnc(Cc2c[nH]c3ccccc23)o1)C(=O)NCCc1ccccc1 (centres unmarked)	alpha-glucosidase	enzyme activity		together with: p-nitrophenyl glucopyranoside	232.75 ± 0.17
CC(=O)c1ccc(NC(=O)Cn2c(=S)n(-c3ccccc3)c(=O)c3ccccc32)cc1	PARP1	enzyme activity			0.0644
NC(N)=S	Urea transporter 2 (Rattus norvegicus, UniProt Q62668)	urea transport, inhibitor	MDCK expressing rat UT-A1	20 min	> 25000
NC(=O)c1cccc2c1OCCN2	PARP1				11 ± 1.9
Cl.Cl.Cl.Cl.Cl.Cl.N.N.N.N.N.N.N.N.N.N.N.N.N.N.[O-2].[O-2].[Ru+3].[Ru+3].[Ru+4]	PIEZO2 (Homo sapiens, UniProt Q9H5I5)	transporter uptake, flow cytometry			115
O=C(OCc1ccccc1)c1ccc(O)cc1	FAAH	enzyme activity, inhibitor, fluorimetric		60 min preincubation, recombinant enzyme, together with: OMP substrate 50 µM	0.28 ± 0.03
COc1ccc(-c2cc(=O)c3c(OC)c([C@@H]4O[C@H](C(=O)NCCCF)[C@@H](O)[C@H](O)[C@H]4O)c(OC)cc3o2)cc1OC	GSK3B (Homo sapiens, UniProt P49841)	enzyme activity, inhibitor, ADP detection			49.5
COc1ccc(OC)c(NC(=O)CSc2nnc(-c3cc4cccc(OC)c4o3)n2-c2ccccc2)c1	fungal tyrosinase	enzyme activity, inhibitor, dopachrome absorbance		pH 6.8, 37 °C, together with: L-tyrosine substrate	2.12 ± 5.78
COC(=O)C(Cc1ccc(CCCC(=O)NCCC(=O)Nc2ccc3nc(C)sc3c2)cc1)C(=O)O (centres unmarked)	LDHB (Homo sapiens, UniProt P07195)	inhibitor, NADH fluorescence		pyruvate competition, together with: 150 µM NADH, 200 µM pyruvate	106 ± 11
Cn1c(=O)c(=O)n(C)c2cc(S(=O)(=O)Nc3ccc(F)cc3)ccc21	DPP4 (Homo sapiens, UniProt P27487)	enzyme activity, inhibitor, fluorescence			0.0007
COc1ccc2nc(NCc3ccc(CNCCCN4CCCCC4)cc3)nc(NC3CCNCC3)c2c1	CXCR4	ligand displacement, radioligand		cell membranes	0.066
CCCCCCCCCCCCCCCCCCCCCCO	HMGCR (Homo sapiens, UniProt P04035)	enzyme activity, inhibitor, absorbance			~250
C#Cc1ccc2c(C)cc(=O)oc2c1	Cytochrome P450 1A2 (CYP1A2, Homo sapiens, UniProt P05177)	enzyme activity, inhibitor		6 min, pH 7.6	2.2
CS(=O)(=O)OC[C@H]1COc2cccc(C(N)=O)c2O1	PARP1				1.2 ± 0.21
O=C(Nc1cc(F)c(F)c(F)c1Br)c1cc(S(=O)(=O)N2CCOCC2)c(Cl)cc1Cl	LPAR3 (Homo sapiens, UniProt Q9UBY5)	Ca2+ mobilization, antagonist	RH7777	together with: LPA at EC50	> 100
O=C(/C=C/c1nc2cc(F)ccc2[nH]1)c1c(-c2ccc(F)cc2)c2cc(F)ccc2[nH]c1=O	AKT1 (Homo sapiens, UniProt P31749)	enzyme activity, inhibitor, FRET			15.6
O=C(NC1CCCCC1)OCc1cn(Cc2ccccc2F)nn1	FAAH	enzyme activity, inhibitor, fluorescence		cell membranes	0.619

Molecule	target	assay	system	setting	IC50 [µM]
COc1ccc2c(NC3CCNCC3)nc(NCc3ccc(CNCCCN4CCCCC4)cc3)nc2c1	CXCR4	ligand displacement, radioligand		cell membranes	0.0479
CC(C)C(C(=O)O)[C@@H]1CCN[C@H]1C(=O)O (relative stereo)	AMPA receptor, rat	binding	cortical synaptosomes	together with: [3H]-AMPA	> 100
CC1(C)S[C@@H]2[C@H](/N=C/N3CCCCCC3)C(=O)N2[C@H]1C(=O)O	mrcB (Pseudomonas aeruginosa, UniProt G3XD31)	ligand displacement, fluorescence		cell membranes	> 39.9
[Cl-].[Cl-].[Zn+2]	HVCN1 (Homo sapiens, UniProt Q96D96, E119H/H193A)	proton current, inhibitor, whole-cell voltage clamp	human cells	pH 6.5, test pulse 100 mV	3.7
CC(=O)n1cnc2ccccc21	mbtI (Mycobacterium tuberculosis, UniProt P9WFX1)	enzyme activity, inhibitor, continuous fluorescence		together with: chorismate	> 200
C[C@@H](CNCc1ccccc1)N1C[C@H](CCCNC(=N)N)N(CCc2cccc(F)c2)C1=S	NPY5R (Homo sapiens, UniProt Q15761)	receptor activation, antagonist, FLIPR			> 10
Cc1ccc(NC2=CC(=O)c3sc(C)nc3C2=O)cc1	PSMB5	enzyme activity		together with: Suc-LLVY-AMC substrate, ATP	> 30
NC(=O)[C@H]1CCN(c2ncnc(N)c2F)C[C@@H]1N1CCC[C@@H](Nc2cc(Cl)cc(C(F)(F)F)c2)C1=O	BTK (Homo sapiens, UniProt Q06187)	phosphorylation, inhibitor	human whole blood	0.5 h, healthy donors, range limit	0.0028 to 0.216
insulin icodec	Insulin receptor, isoform A (INSR, Homo sapiens, UniProt P06213)	binding, competitor, scintillation proximity	solubilized receptor	HSA 0%	0.00547
COc1ccc(-c2ccc3c(c2)[nH]c2ccncc23)cn1	MAPT (Homo sapiens, UniProt P10636)	ligand displacement, radioligand			> 10
O=C(NCc1ccc(F)cc1)C1CCN(S(=O)(=O)c2cc(Cl)cc(Cl)c2)CC1	Na(+)/citrate cotransporter (Homo sapiens, UniProt Q86YT5)	citrate uptake, inhibitor	HepG2	30 min preincubation, washout before uptake	0.197 ± 0.051
CC(C)CCCCC/C=C/C=C/C(=O)N[C@H](C(=O)N[C@H]1C[C@@H](O)CCNC(=O)/C=C/[C@H](C)NC1=O)[C@@H](C)O	PSMB5	probe labelling, inhibitor, in situ competitive profiling	RPMI-8226	6 h	0.0075
COc1ccc(OCC2=C(C)C(=O)c3ccccc3C2=O)cc1C(F)(F)F	TXNRD1 (Homo sapiens, UniProt Q16881)	enzyme activity, inhibitor		pH 7.4, with preincubation	0.8
CN1CCN(CCCN2c3ccccc3Sc3ccc(C(F)(F)F)cc32)CC1	USP46, with UAF1 (Homo sapiens, UniProt P62068)	deubiquitinase activity, inhibitor		no inhibition up to 114 µM, together with: K63-linked diubiquitin	> 114
O=c1[nH]c2ccccc2n1C1CCN(CCCC(c2ccc(F)cc2)c2ccc(F)cc2)CC1	ABCC1	efflux, inhibitor	SupT1-Vin overexpressing ABCC1	together with: SYTO 16 100 nM	3.3 ± 0.4
CCCOC(=O)c1ccc(O)cc1	FAAH	enzyme activity, inhibitor, fluorimetric		5 min preincubation, recombinant enzyme, together with: OMP substrate 50 µM	9.4 ± 1
CN1CCN(C2=Nc3ccccc3Oc3ccc(Cl)cc32)CC1	ABCC1	substrate efflux, inhibitor, flow cytometry	ABCC1-overexpressing SupT1-Vin cells	together with: BODIPY-FL-prazosin 100 nM	8 ± 1.9
N=C1C=CC(=C(c2ccc(N)cc2)c2ccc(N)cc2)C=C1	Cell division cycle 7-related protein kinase, with DBF4 (CDC7, Homo sapiens, UniProt O00311)	enzyme activity, inhibitor, ADP-Glo luminescence		together with: ATP 12.5 µM	14.9 ± 4.66
NC(=O)c1cccc(-c2cc(OC(=O)NC3CCCCC3)ccc2O)c1	FAAH	enzyme activity, inhibitor, fluorescence		pH 8	0.017
